# Published values collected from several papers.
# Parts stem from different laboratories: compare values within a part only. Positions count from the first letter of the parent shown.

# Block 1
# Target: ABI1, truncated, D143A, DHFR fusion (Arabidopsis thaliana, UniProt P49597)
# Method: DHFR PCA, dose-response
# Matrix: yeast
# Setting: Hill fit, not affinity
# Added: (+)-ABA, dose series
# Direction: lower = more sensitive
# Parent: PYL1, truncated, DHFR fusion (Arabidopsis thaliana, UniProt Q8VZS8); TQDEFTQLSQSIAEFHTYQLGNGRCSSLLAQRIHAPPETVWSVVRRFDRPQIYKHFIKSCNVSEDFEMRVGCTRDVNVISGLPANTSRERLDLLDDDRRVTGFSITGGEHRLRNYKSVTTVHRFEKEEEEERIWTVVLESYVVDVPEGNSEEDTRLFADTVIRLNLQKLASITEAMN
Variant,ABA EC50
E131N,2.75 µM
V100N,1220 µM
N85H,29.8 µM
T154P,1830 µM
A84Y,2.11 µM
L20T,4.06 µM
L169T,1170 µM
S104D,1900 µM
L28I,20 µM

# Block 2
# Target: CCNB2, cyclin fold, Cln2 fusion (human)
# Method: yeast growth competition, sequencing
# Matrix: yeast
# Setting: weak parent motif
# Baseline: not given
# Direction: higher = stronger binding
# Parent: PKN2 docking peptide (human); VSAVRKLDFSDTM; partner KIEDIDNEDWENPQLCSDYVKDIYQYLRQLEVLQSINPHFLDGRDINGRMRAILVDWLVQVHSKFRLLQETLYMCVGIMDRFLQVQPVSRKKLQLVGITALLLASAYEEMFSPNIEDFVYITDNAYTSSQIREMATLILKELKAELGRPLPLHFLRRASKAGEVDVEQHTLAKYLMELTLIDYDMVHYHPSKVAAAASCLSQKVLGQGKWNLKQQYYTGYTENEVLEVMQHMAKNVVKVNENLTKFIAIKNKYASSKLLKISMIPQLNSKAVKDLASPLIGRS
Variant,normalised enrichment score
VSAVRKLDYSDTM [F9Y],-0.21
VSYVRKLDFSDTM [A3Y],0.271
VSAVRKLDFSITM [D11I],-0.0282
VSAVRKTDFSDTM [L7T],0.221
VSAVRKLDFSQTM [D11Q],0.235
VSAVRKLDSSDTM [F9S],0.278
VRAVRKLDFSDTM [S2R],0.428
VSAVRKGDFSDTM [L7G],-0.186
VSAVRKLHFSDTM [D8H],0.497
VSAVRKLDFSSTM [D11S],0.118
VSAVRKLDFSATM [D11A],0.485
VSAVRKLDFSPTM [D11P],0.385
VDAVRKLDFSDTM [S2D],0.507
VSAVRKLLFSDTM [D8L],-0.0261
VSAQRKLDFSDTM [V4Q],0.257
VSFVRKLDFSDTM [A3F],0.676
VSAVWKLDFSDTM [R5W],-0.186
VSAVRKLDFSRTM [D11R],-0.0941
VSAVLKLDFSDTM [R5L],0.0223
VSAVRKLDFKDTM [S10K],-0.23
VSAVRKLDNSDTM [F9N],0.0476
VSAVRKMDFSDTM [L7M],0.191
VSAVRKLDWSDTM [F9W],0.609
VSAVRKLDFSDMM [T12M],0.561
VSAVRTLDFSDTM [K6T],0.175

# Block 3
# Target: RING finger protein unkempt homolog, zinc fingers 1-6, GST-SBP tag (UNK, Homo sapiens, UniProt Q9C0B0, residues 30-357)
# Method: RNA Bind-n-Seq
# Form: RNA
# Matrix: in vitro
# Tested at: not given
# Setting: RNA with constant flanks, human and mouse sites, ends assumed
# Baseline: input RNA pool
# Direction: higher = stronger binding
# All sequences stand within: GGGAGUUCUACAGUCCGACGAUC … CAACAGAGGAUUGAGCAUCA
# Residues (chain): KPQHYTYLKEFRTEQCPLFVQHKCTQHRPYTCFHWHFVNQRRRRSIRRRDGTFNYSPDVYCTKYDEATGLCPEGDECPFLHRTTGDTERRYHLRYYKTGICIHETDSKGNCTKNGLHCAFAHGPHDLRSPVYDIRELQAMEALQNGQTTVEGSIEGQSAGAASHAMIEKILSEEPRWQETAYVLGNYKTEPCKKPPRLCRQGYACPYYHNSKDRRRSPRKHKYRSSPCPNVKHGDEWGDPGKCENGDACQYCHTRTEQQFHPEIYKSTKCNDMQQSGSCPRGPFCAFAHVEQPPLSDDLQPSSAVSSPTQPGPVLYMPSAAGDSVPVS
Sequence,bound/input enrichment
GCCUCUCGCUGGGGUCUUACGCUACAGACUUAUGUGCAGCUCACCAUGCUGGACAGGCAUACUCGUCCUCAGGUGUCAUCUGUACGGUUGAUGGAGAGGUCGAUUCACAGCGCAAGAUAC,0.0979 ratio
CUUUUCCCAGCGUGCCCCUCUUCAGUGCCUGCUCCAGGUUGAAGAAGCUUCUAGAUGGAUCCUUUCCAAAUUUGGUGUCUUUUCUACAAACUCUGUGCCUCAACCUCAAUUUCUAAGUGA,0.379 ratio
CUUGGGGGCCUAAAGAGACCCCCGUCCUGCCUCCUUUCUUUCUCUGUCUCUUCCUUCCUUUUAGUCUUUUUCAUCCUCUUCUCUUUCCACCAACCCUCCUGCAUCCUUGCCUUGCAGCGU,5.37 ratio
CCUCCCUUUGCUACUGGACUGCCUCACUAUGGACACAUACUUGCUGGGACAAUCAAAGAUAUCGUUACGAGAUACGCUCACCAGAGCGGGUUUCACGUUGACAGAAGAUUCGGGUGGGAC,0.184 ratio
CACACACUCUUCUGCGGGACCCUCAUCUUGCAGGCCCGGGCCUAUGUGGGACCGCACGUCCUGGCAGUGGUGACCCGCACAGGGUUCUGCACGGCAAAAGGGGGCCUGGUGAGCUCCAUC,0.124 ratio
UAUGACAGAAUGGAUUAUGAAGAUGACAGAUUAAGAGAUGGAGAAAGGUGUAGGGAUGAUUCUUUUUUUGGUGAGACCUCGCAUAACUAUCAUAAAUUUGACAGUGAGUAUGAGAGAAUG,0.697 ratio
CCGAAAGUAGUGAAUGAAAUAAACAUUGAAGAUUUGUGUCUUACUAAAGCAGCUUAUUGUAGGUGUUGGCGUUCUAAAACGUUUCCUGCCUGCGAUGGUUCACAUAAUAAACACAAUGAA,4.7 ratio
CAGACCUACAUCAACGGGCUCCUCACGGGCUACAGCUCCACGCUAUGGAUUGGCCUUAAUGACCUGGAUACCAGUGGAGGCUGGCAGUGGUCAGACAACUCACCCCUCAAGUACCUCAAC,0.067 ratio

# Block 4
# Target: RNA binding protein fox-1 homolog 2, RRM domain, GST-SBP tag (RBFOX2, Homo sapiens, UniProt O43251-10, residues 100-194)
# Method: RNA Bind-n-Seq
# Form: RNA
# Matrix: in vitro
# Tested at: 365 nM
# Setting: natural RNA segment, single round, ends assumed
# Baseline: no-protein control
# Direction: higher = stronger binding
# All sequences stand within: GGGAGUUCUACAGUCCGACGAUC … UGGAAUUCUCGGGUGCCAA
# Residues (chain): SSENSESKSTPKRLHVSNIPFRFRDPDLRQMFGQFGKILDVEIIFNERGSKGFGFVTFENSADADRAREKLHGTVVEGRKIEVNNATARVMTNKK
Sequence,RBNS enrichment (R)
AGGAGUUCAAGGCCAGCCUUAGCUAUAUAGUGAGUUUGAAGCCAGCCUGGGCUACAUGUAACCUUCCCAAAAAAAUCCAAAACAACAACAAAAAUAUUUAAGUGUGCCUA,0.606
GUGGCCCCUGAAGGUUGCUUUAAGGGGAAAGUAUGUUCUCAUGUCUUCACCCCUCCCUAGAUCUCACCUAAACAUGCUGUCCCUAAUAAAGCUGGAUAAGAAGCUGCUGU,0.337
UGAAACUGCUGUCUCUGAAACUCUUCCUCCAUUAGAGCGCUCCAGUAACCCAUGAAGGCCCACAGCGGGAUGGGACUAGUUUAUAGGAGAGCGUUGUCAAUACCACUUAU,0.515
AAGCUUUGGUUGUAGUGUGAGCAUCAUUUGGCAUUAGAGAAACCAUGUACUAGUGGAAAAGUCUAGUGAAAAGGGCAGAAUCUGCAGCUGUAACAAAGCUAAGAACAGCA,0.481
UUGAAAGAUUACAAACAGCUGUUUCUCAAACCCUCUCAAUCCAUCAUAAUAAAAUACAUAAUAUUGUAUCUUUAGAAGUAAAUUAUUACAUUGUCUAUUUUCUUAAAAGU,0.67
AUUGAGUAGUAUAAGUAGGAUGUUUUUAUUACUUGGUCAUAAUGAAAAUAAUUUGUAAAAUGUCAUUCGAAGGUUAAUGAUGAUUGUGAUGUUUAGGAAUGUUUGUCUCA,18.1
AGUAGGAACAUGCUGAUGGGACACCAACAAAGCACAGGGUGCUUUUAAAAUAAAGCCCUGGGCCAGAAAGGCAAUGUGGCUAAAGAAUGUAUUGCACUAUACUUCUAAUG,0.864
AGAUGAAAUGCUCUUUGCAUUGUCUGAACCCUCUCUAAUUCUAUCAUGAUAACGCUACUGUGACGCUCUCACUGGGAAGCUGGGUGGCGAGAACUUUCUGGACGUCGAUG,0.302

# Single results of other studies
Molecule,target,assay,system,setting,scale,measurement,value
"PhoQ, residues 284 288 289 292 302 303 AGCYAI","PhoP, residues 12 14 15 18 19 SPWRL (Escherichia coli, UniProt P23836)","Sort-seq, measured: YFP reporter",E. coli,"PhoQ-PhoP variant library, added: 10 µM Mg2+","baseline: high Mg2+ state, higher = stronger signaling",fold induction,1.25

# A few entries again (block 2):
Variant,normalised enrichment score
VDAVRKLDFSDTM [S2D],0.507
VSAVRKLLFSDTM [D8L],-0.0261
VSAQRKLDFSDTM [V4Q],0.257
VSFVRKLDFSDTM [A3F],0.676
VSAVWKLDFSDTM [R5W],-0.186
VSAVRKLDFSRTM [D11R],-0.0941
VSAVLKLDFSDTM [R5L],0.0223
